# Published values pooled from the literature.
# Each numbered part is a random draw from the data of one study; scales do not carry over between parts.

# Study 1
# Target: RNA binding protein fox-1 homolog 2, RRM domain, GST-SBP tag (RBFOX2, Homo sapiens, UniProt O43251-10, residues 100-194)
# Method: RNA Bind-n-Seq
# Form: RNA
# Matrix: in vitro
# Concentration: 365 nM
# Setting: natural RNA segment, single round, ends assumed
# Reference: no-protein control
# Direction: higher = stronger binding
# Target sequence (chain): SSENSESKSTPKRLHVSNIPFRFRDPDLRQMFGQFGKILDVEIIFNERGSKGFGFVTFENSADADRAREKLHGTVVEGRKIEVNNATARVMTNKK
Sequence,RBNS enrichment (R)
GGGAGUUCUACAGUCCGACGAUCACACACACACACACAUCUUGUACCCCAGACCUCUGGGUAUAAUUUUCAUAAUUGGUGCAGAAAGAAGAAAUGAUCUGAAGAUGUGUUAAAUGGAUUGCAGGGGAAGGAAGUGGAAUUCUCGGGUGCCAA,0.644
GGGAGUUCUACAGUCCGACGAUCAUUUUUAAAGAUAACUCAGCAUGUUUGUAAAGCAGGAUACAUUUUACUAAAAGGUUCAUUGGUUCCAAUCACAGCUCAUAGGUAGAGCAAAGAAAGGGUGGAUGGAUUGAUGGAAUUCUCGGGUGCCAA,6.17
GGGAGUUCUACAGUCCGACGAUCUCCAGCUUGUUGUGUUUAUAAAUCAUAAAGUCAUGAUAUACCUUCUACAGACAUAGCAUUUUUUCAGAGAUGGAAAAUGGCCAUUAGAGUCACUUUCCAUAUUAUACCCUUGGAAUUCUCGGGUGCCAA,0.539
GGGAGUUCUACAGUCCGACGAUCGGCCUCCCCACUCUGGUGUCUAUGACUGGCUCCUCAUACCACUGUUUUCCUGACUUCCAGCCUUGCCUGACUCACCGGGAUCCUUAUGUUUGGGCCUUCCCCAUCCUAUUUGGAAUUCUCGGGUGCCAA,0.574
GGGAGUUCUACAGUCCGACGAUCAAGAAGCAGAUAUCUCGAAGGAGCUUACACAAGAACCACAAUUACUAGAUCAUGAUAUACUUGGAAAGUGUGAAAUAUGGUGUGUACUCAGUUAUUGGCUUCCAUUUUUUUGGAAUUCUCGGGUGCCAA,0.646
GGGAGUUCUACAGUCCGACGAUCGCCUACCUCUCCACAAGGGGAUUUUGCUGAUGGGUUCUUAGAGCCUUAGCAGCCCUGGAUGGUGGCCAGAAAUAAAGGGACCAGCCCUUCAUGGGUGGUGACGUGGUAGUUGGAAUUCUCGGGUGCCAA,0.282
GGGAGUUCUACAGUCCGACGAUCAUCACUGAGUUUCUGAUUUAGUAGUUUGUUCUGUAGAUCCCCAAAGCUGUGCUGUGUAUUGGUGGUUUUAGAAAGACUCAGCUCAUGAGCUGUGUUAAACCUUAACAUGAUGGAAUUCUCGGGUGCCAA,0.538
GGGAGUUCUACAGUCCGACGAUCUUGGCCCUAUCCUCUCCAUUAGCUCCUUCCGGGUUUGGACCAUUCCCCCCACUCCCUACCCUUAAUCCCCACAUGGGAAGAAGCUAUCAUCACAGGUACAAACAUCGCUUUGGAAUUCUCGGGUGCCAA,0.544

# Study 2
# Target: Hepatocyte nuclear factor 3-alpha (Foxa1, Mus musculus, UniProt P35582, residues 1-468, full length assumed)
# Method: EMSA with sequencing
# Form: double-stranded DNA, one strand shown
# Matrix: in vitro
# Concentration: 10 and 20 nM
# Setting: whole designed probe, mean of two concentrations, ends assumed
# Reference: negative control set to 0
# Direction: higher = stronger binding
# Residues (chain): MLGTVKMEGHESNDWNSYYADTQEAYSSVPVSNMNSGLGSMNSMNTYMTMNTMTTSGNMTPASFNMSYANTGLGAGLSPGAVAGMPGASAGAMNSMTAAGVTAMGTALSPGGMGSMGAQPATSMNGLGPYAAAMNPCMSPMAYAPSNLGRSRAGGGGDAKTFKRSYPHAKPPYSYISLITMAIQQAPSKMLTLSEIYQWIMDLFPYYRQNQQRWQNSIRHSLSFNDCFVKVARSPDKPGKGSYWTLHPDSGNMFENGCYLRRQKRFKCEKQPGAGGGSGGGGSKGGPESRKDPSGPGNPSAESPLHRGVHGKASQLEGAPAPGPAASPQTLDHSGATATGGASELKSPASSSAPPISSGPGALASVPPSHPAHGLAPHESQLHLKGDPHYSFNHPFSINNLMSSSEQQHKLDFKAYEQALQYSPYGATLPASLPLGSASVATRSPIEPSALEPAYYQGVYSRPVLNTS
Sequence,normalised bound fraction
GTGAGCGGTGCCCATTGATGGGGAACAAACAGTTCTGTTAGGAAAGATCAGCAAACACCACGTGCAGCAACTCAACAAGCATCTCTATCCTGCCTCTGGCGAGCACATGTTATTTCTAAGCCATCTGCGCCACCTAGTGGAAATATAAATCCTCTTCATGTGGCAAATCGCCGGTGTTTTACAGTAATACTGCAGCTTCTCAATTCTTTCTTTTTGCACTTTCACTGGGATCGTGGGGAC,0.0604 ratio
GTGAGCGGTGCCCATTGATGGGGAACGAGGGGACGCCCTGGAGCTCAGGTGCTCAAGGGCGTGCGCGGGGCTCGGCCGCCGGTGTCCCTGGAGATGCTTCTCTGGTCTGGTGTGACACGAGAGTACACAGTCCCCGCCCTCTCGTGAGCGCCCGGGTGCGTGTGCTCCCTCCCGACCACCCTGAGGAGCGAGGGTGCTGGTCCCCGAGAGGGCGGCGAGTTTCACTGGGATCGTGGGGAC,-0.0424 ratio
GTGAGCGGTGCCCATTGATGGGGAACACATTTGACAAACTTCAACACCCTTTCATGACAAAAACACTTATAGAAGGAAACAACCTCAACATAATAAAAGCCATATATGAAAAACCCACAGCAAACATCACACTCCATGGTGAACGTCTGAAAGCTTTTTCTCTAAAAATCAAGAACAAGGCAAAGATGCTCAATTTCACCACTTCTATTCAACGTAGTTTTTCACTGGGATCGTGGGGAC,-0.00145 ratio
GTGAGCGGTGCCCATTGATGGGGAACCAAGTTTGTGGTCCAGGAGCAACAGGTTATGCCATACAGCCTAGGTGTGTAGTAGGCTACACACCGTCTATGTTTGTGTTGTACACTCTTTGTGCAAACATTGTCCATGACTCATTGATGAAATCTTCTCAGAACATACCCCTGTTGTTAAGCGATACATGACTGTACTTTTTTTAAAAAGTCCAAGGATATATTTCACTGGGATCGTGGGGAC,0.43 ratio
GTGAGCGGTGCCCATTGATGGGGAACTGATTCATCTGTAGGTCTGCTTCAAATGACTTTGTTCTCTTGATTATGGGCCACATTTTCCAGCTTCTTTGTGTGTTTTAAACTTTTGTATTAAGAGTACTTTTACCTTACACACAAGCACATAAGCCATGTAAAGTCCCTGTTTTGGTGAGGTTGCAATTTTTGAGCCTCAAATTCTGACAGGAAGCCCCAGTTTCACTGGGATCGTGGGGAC,0.0275 ratio

# Study 3
# Target: Interferon regulatory factor 3, full length, phosphomimetic (IRF3, Homo sapiens, UniProt Q14653, residues 1-427, S386D/S396D/S398D/S402D/T404D/S405D)
# Chain of UniProt Q14653 (whole entry, unmodified, looked up): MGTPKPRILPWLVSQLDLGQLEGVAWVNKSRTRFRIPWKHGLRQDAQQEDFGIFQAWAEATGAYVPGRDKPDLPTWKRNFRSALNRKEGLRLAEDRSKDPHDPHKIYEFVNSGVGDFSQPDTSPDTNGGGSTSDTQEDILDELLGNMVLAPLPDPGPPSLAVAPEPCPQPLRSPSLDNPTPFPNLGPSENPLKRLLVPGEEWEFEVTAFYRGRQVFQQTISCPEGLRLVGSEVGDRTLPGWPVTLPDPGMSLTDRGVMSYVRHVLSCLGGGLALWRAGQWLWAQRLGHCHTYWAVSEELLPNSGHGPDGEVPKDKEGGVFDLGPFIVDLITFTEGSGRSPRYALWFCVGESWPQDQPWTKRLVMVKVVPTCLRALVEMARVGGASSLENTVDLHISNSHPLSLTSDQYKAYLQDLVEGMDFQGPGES
# Method: protein-binding microarray
# Form: double-stranded DNA, one strand shown
# Matrix: in vitro
# Concentration: 2540 nM top
# Setting: 60-bp whole probe
# With: salmon DNA 0.4 mg/ml
# Reference: random background probes
# Direction: higher = stronger binding
# Shared flanks, not repeated: GCCTAGCAC … GTCTTGATTCGCTTGACGCTGCTG
Sequence,fitted relative affinity
TTACGTCTCCTTATCCTTTAGTGCTAG,2.37 z-score
GACGATTTCAGTATCGATACGTGCTAG,3.15 z-score
GATGATCTCAGTATCGAGACGTGCTAG,0.417 z-score
TTAGAACTGGGGTTTCGATTCGTGCTA,2.62 z-score
TGGGTCTTGGTTCTCAGCTTGTGCTAG,-0.687 z-score
TTAGATTTCTGTTTCGATTAGTGCTAG,5.48 z-score
AAACGGGCTTCTTTTTCTCAGGTGCTA,0.615 z-score
CCCTGAGTCCCTTGGGCCTTGTGCTAG,-0.989 z-score
GACGAAATGGGGTATCGAGACGTGCTA,-0.231 z-score
TCCCTTTCAGTTTTCCTCTGGTGCTAG,4.92 z-score
GACGAACGGAGACTGGAGACGTGCTAG,-0.241 z-score
TTGAACTTCGGCCTCTAGGTGTGCTAG,-1.08 z-score
GTAGTAATGAATATAATACCGTGCTAG,0.0696 z-score
TTTGGTATCGGTTTCGGTTAGTGCTAG,8.55 z-score
TTAGATTTCGGTTTTCGATTAGTGCTA,7.05 z-score
GACGATTTCAGTCTCTAGACGTGCTAG,2.53 z-score
TTAGGTTTTGGTTCCGGTTAGTGCTAG,5.34 z-score
TCATACATGTGTTTAAAACTGTGCTAG,0.178 z-score
TCATATTCATATATATAACTGTGCTAG,1.45 z-score

# Study 4
# Target: Histone acetyltransferase KAT6A, winged helix 1, GST fusion (KAT6A, Homo sapiens, UniProt Q92794, residues 1-85)
# Method: protein binding microarray
# Form: double-stranded DNA, one strand shown
# Matrix: in vitro
# Concentration: not given
# Setting: 8-mer, flanks averaged, mean of 2 arrays, mostly near background
# Reference: not given
# Direction: higher = stronger binding
# Residues (chain): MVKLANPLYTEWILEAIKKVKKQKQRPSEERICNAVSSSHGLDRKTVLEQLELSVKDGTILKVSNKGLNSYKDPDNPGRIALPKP
Sequence,E-score
TGCGGGAA,0.324
ACCGTTCG,0.0222
CGTCACGA,0.0944
CGAATGAC,-0.0449
CACGCAAA,0.0774
GCTACTAC,0.114
CCGCAAGA,0.101
GGATTAGA,-0.0697
ACGTCCAA,-0.0437
CCAGCATA,-0.147
AGACTGCG,0.117
CGGCGCAC,0.435
CACCTAAC,-0.181
AGCGCGAG,0.297
CAAACAGA,-0.152
AGTCCACG,0.0833
ATGCCTTA,-0.178
CTATGATA,-0.0621
AATCGGTA,0.00359
